Results pooled from the literature.
Numbers after ± are the reported error.
Cell line: HeLa

CCCCCCCCCCCCCCCCCCOc1c(O)cc(C(=O)O[C@@H]2Cc3c(O)cc(O)cc3O[C@@H]2c2cc(O)c(O)c(O)c2)cc1O  IC50 (cell growth or viability, CCK-8; 24 h): 60.6 µM
CN(C)c1ccc(CNC(=O)Cc2ccc(-c3ccc(OCCN4CCOCC4)cc3)cn2)cc1  IC50 (cell growth or viability, CCK-8; 48 h): 0.48 µM
COc1ccc(COC[C@](O)(CNCc2ccc(F)cc2)[C@@H]2CC[C@@H](C)C[C@H]2OCc2ccc(OC)cc2)cc1  IC50 (cell growth or viability, MTT; 72 h): 3.6 µM
Cc1cc(C#N)cc(C)c1Oc1cc(Nc2ccc(C#N)cc2)nc2ccncc12  IC50 (48 h): > 128 µM
CN(C)CCO/N=C1/C=C2CCC3C(CC[C@]4(C)/C(=C/c5ccccn5)CCC34)[C@@]2(C)CC1 (some centres unmarked)  IC50 (cell growth or viability, MTT; 72 h): > 100 µM
CO[C@@H]1[C@@H](O[C@@H]2O[C@H](C)[C@@H](O[C@H]3C[C@@](C)(O)[C@@H](OC(=O)CN4CCOCC4)[C@H](C)O3)[C@H](N(C)C)[C@H]2O)[C@@H](CC=O)C[C@@H](C)[C@@H](O[C@H]2CC[C@H](N(C)C)[C@@H](C)O2)/C=C/C=C/C[C@@H](C)OC(=O)C[C@H]1O  IC50 (cell growth or viability, CCK-8; 72 h): 9.71 µM
COc1ccc(-c2nnc(-c3ccccn3)[nH]2)cc1OC  IC50 (cell growth or viability, MTT; 24 h): > 100 µM
CC1=CC(C(F)(F)F)=[O+][Pt-2]([NH3+])([NH3+])[O]1.CC1=CC(C(F)(F)F)=[O+][Pt-2]([NH3+])([NH3+])[O]1.O=S(=O)([O-])[O-] (centres unmarked)  IC50 (cell growth or viability, MTT): 2.9 µM
C[C@@H]1CC[C@@H]([C@](O)(CNCc2ccccc2F)COCc2ccccc2)[C@H](OCc2ccccc2)C1  IC50 (cell growth or viability, MTT; 72 h): 2.4 µM
N=C(N)NCCC[C@@H]1NC(=O)[C@H](CCCCN)NC(=O)[C@@H](Cc2ccc(O)cc2)NC(=O)[C@H](CC(=O)O)NC(=O)CNC1=O  IC50 (cell growth or viability, MTT; 48 h): > 100 µM
COc1cc(/C=N/NC(=O)c2cc3cc(Nc4nccc(-c5cccnc5)n4)ccc3[nH]2)cc(OC)c1  IC50 (cell growth or viability, MTT; 48 h): 7.46 µM
C=C1C(=O)OC2C=C(C)CCC=C(C(=O)OC(C)C(C)(O)C(=O)OC3C(OC(C)=O)C(C(=O)OC)=CCCC4(C)OC4C4OC(=O)C(=C)C34)CC(OC(=O)C(C)=CC)C12 (centres unmarked)  IC50 (cell growth or viability; 48 h): 1.93 µM
COc1cccc2c(NCc3ccccc3)nc(NCc3cccs3)nc12  IC50 (ODD-Luc degradation; p97-independent substrate): 4 ± 1 µM
CN[C@H](CC(C)C)C(=O)N[C@H]1C(=O)N[C@@H](CC(N)=O)C(=O)N[C@H]2C(=O)N[C@H]3C(=O)N[C@H](C(=O)N[C@H](C(=O)O)c4cc(O)cc(O)c4-c4cc3ccc4O)[C@H](O)c3ccc(c(Cl)c3)Oc3cc2cc(c3O[C@@H]2O[C@H](CO)[C@@H](O)[C@H](O)[C@H]2O[C@H]2C[C@](C)(N)[C@H](O)[C@H](C)O2)Oc2ccc(cc2Cl)[C@H]1O  IC50 (cell growth or viability, MTT; 48 h): > 500 µM
COC(=O)[C@@H]1CCCN1C(=O)[C@H](C)N(C)C(=O)OC(C)(C)C  IC50 (cell growth or viability, SRB): 60 µM
CCCCc1ccc(C(=O)O[C@H]2[C@H](C)O[C@@H](O[C@H]3[C@H](N(C)C)[C@@H](O)[C@H](O[C@H]4[C@@H](CC=O)C[C@@H](C)[C@@H](O[C@H]5CC[C@H](N(C)C)[C@@H](C)O5)/C=C/C=C/C[C@@H](C)OC(=O)C[C@@H](O)[C@@H]4OC)O[C@@H]3C)C[C@@]2(C)O)cc1  IC50 (cell growth or viability, CCK-8; 72 h): 4.22 µM
CC(C)(C)c1cc2c(O)c(c1)Cc1cc(C(C)(C)C)cc(c1OCC(=O)Nc1cncc3ccccc13)Cc1cc(C(C)(C)C)cc(c1O)Cc1cc(C(C)(C)C)cc(c1OCC(=O)Nc1cncc3ccccc13)COC2  IC50 (cell growth or viability, MTT; 72 h): 6 µM
CCc1ccc([C@H](C)CC(=O)NC(=O)N[C@@H]2O[C@H](CO)[C@@H](O)[C@H](O)[C@H]2O)cc1  IC50 (cell growth or viability; 96 h): > 250 µM
CC(=O)[C@@H]1CCCN1C(=O)[C@@H]1CCCN1C(=O)[C@H](Cc1ccccc1)N(C)C(=O)OC(C)(C)C  IC50 (cell growth or viability, SRB): 9 µM
CC(C)(C(=O)O)C1(O)CCCCC1  IC50 (cell growth or viability): 129 µM
CCCCCCCC(=O)O[C@H]1[C@H](C)O[C@@H](O[C@H]2[C@H](N(C)C)[C@@H](O)[C@H](O[C@H]3[C@@H](CC=O)C[C@@H](C)[C@@H](O[C@H]4CC[C@H](N(C)C)[C@@H](C)O4)/C=C/C=C/C[C@@H](C)OC(=O)C[C@@H](O)[C@@H]3OC)O[C@@H]2C)C[C@@]1(C)O  IC50 (cell growth or viability, CCK-8; 72 h): 7.13 µM
C=CCOC(=O)[C@]12CS[C@H](c3ccccc3)N1C(=O)/C(=C(\O)CCc1ccccc1)C2=O  IC50 (cell growth or viability, resazurin): 7.81 µg/mL
C[C@]12CC/C(=N\O)C=C1CCC1C2CC[C@]2(C)/C(=C/c3ccccn3)CCC12 (some centres unmarked)  IC50 (cell growth or viability, MTT; 72 h): > 100 µM
COc1cc(CN2CCN(c3ccc(OC(F)(F)F)cc3)CC2)c2cc3[n+](cc2c1O)CCc1cc2c(cc1-3)OCO2  IC50 (cell growth or viability, SRB; 48 h): 5.64 µg/mL
CN1CCCNC(=O)CC2(CCCCC2)CC(=O)NCCCN(C)CCCNc2cccc3c2C(=O)c2cccc(c2C3=O)NCCC1  IC50 (cell growth or viability, CCK-8; 48 h): 5.5 µM
[Cl][Pt-]1([Cl])[S]C(Nc2ccccc2)=N[N+]1=Cc1cccs1  IC50 (cell growth or viability): 37 µM
CC=C(C)C(=O)OC1C(O)C2(CO)C(CC1(C)C)C1=CCC3C4(C)CCC(O)C(C)(CO)C4CCC3(C)C1(C)C(O)C2O (centres unmarked)  IC50 (cell growth or viability, CCK-8; 48 h): 45.1 µM
Cc1cc(N2CCN(C(=O)CN3CCN(C)CC3)CC2)n2ncnc2n1  IC50 (cell growth or viability, MTT): 52.4 µM
C[C@@H]1CC[C@@H]([C@](O)(CNCc2ccc(F)cc2)COCc2ccccc2)[C@H](OCc2ccccc2)C1  IC50 (cell growth or viability, MTT; 72 h): 7.2 µM
CC12CCC3c4ccc(OCCCOc5no[n+]([O-])c5S(=O)(=O)c5ccccc5)cc4CCC3C1CCC2O (centres unmarked)  IC50 (cell growth or viability, MTT; 48 h): 3.85 µM
NC(=O)c1cccnc1.O=c1[nH]cc(F)c(=O)[nH]1.O=c1[nH]cc(F)c(=O)[nH]1.O=c1[nH]cc(F)c(=O)[nH]1  IC50 (cell growth or viability, MTT; 72 h): 1.59 µM
CC(C)=CCCC(C)(O)C1CCC2(C)C1C(O)CC1C3(C)CCC(OC4OC(COC(=O)CCCCCN5C(=O)C=CC5=O)C(O)C(OC(=O)CCCCCN5C(=O)C=CC5=O)C4O)C(C)(C)C3CCC12C (centres unmarked)  IC50 (cell growth or viability, MTT): 14.2 µM
CCCCCCCC[P+](c1ccc(C)cc1)(c1ccc(C)cc1)c1ccc(C)cc1  IC50 (cell growth or viability, resazurin; 72 h): 0.3 µM
CC(=O)Oc1cc2c(cc1C(C)C)C1(CC3C(C)(CN4C(=O)c5c(Cl)c(Cl)c(Cl)c(Cl)c5C4=O)CCCC23C)C23c4c5c6c7c8c9c(c%10c%11c2c2c4c4c%12c5c5c6c6c8c8c%13c9c9c%10c%10c%11c%11c2c2c4c4c%12c%12c5c5c6c8c6c8c%13c9c9c%10c%10c%11c2c2c4c4c%12c5c6c5c8c9c%10c2c45)C713 (centres unmarked)  IC50 (cell growth or viability, MTT; 48 h): > 30 µM
S=c1n(-c2ccccc2)c2c3ccccc3nc3[n+]2[n]1[Ir-3]12([S]3)([c]3ccccc3-c3sc4ccccc4[n+]31)[c]1ccccc1-c1sc3ccccc3[n+]12  IC50 (cell viability, MTT; irradiation 450 nm, 15.5 mW/cm^2, 15 min): 0.006 ± 0.001 µM
Nc1ncnc2c1ncn2[C@@H]1O[C@H](CSSc2ccccn2)[C@@H](O)[C@H](F)[C@H]1O  IC50 (cell growth or viability): 192 µM
F[P-](F)(F)(F)(F)F.O=C(CCC(=O)[c-]1cccc1)NCCN(CC(=O)Nc1ccc(C#CCN(Cc2ccccn2)Cc2ccccn2)cc1)C(=O)CCc1cn(Cc2ccccc2)nn1.[C-]#[O+].[C-]#[O+].[C-]#[O+].[C-]#[O+].[C-]#[O+].[C-]#[O+].[Mn+].[Re+]  IC50 (cell viability, resazurin; 48 h): 10.7 ± 1.3 µg/mL
N#Cc1c(-c2ccc(Cl)cc2)cc(-c2cccc3ccccc23)n2c(Cc3ccccc3)nnc12  IC50 (cell growth or viability, MTT; 72 h): 1.04 µM
Nc1ncnc2c1ncn2CC(=O)N[C@@H](Cc1ccccc1)C(=O)N[C@@H](Cc1ccccc1)C(=O)O  IC50: > 500 µM
COC(=O)CNc1cc(CS(=O)(=O)c2ccc3ccccc3c2)ccc1OC  IC50 (cell growth or viability, MTS; 48 h): 0.096 µM
O=[N+]([O-])c1ccc(NC2=N[N+](=Cc3cccs3)[Pd-]([Cl])([Cl])[S]2)cc1  IC50 (cell growth or viability): 385 µM
O=C(/C=C/c1ccc(-c2ccccc2)cc1)N[C@@H]1O[C@H](CO)[C@@H](O)[C@H](O)[C@H]1O  IC50 (cell growth or viability; 96 h): 84 µM
CC(C(=O)NCc1ccccc1)c1ccc(-c2ccc(OCCN3CCOCC3)cc2)cn1 (centres unmarked)  IC50 (cell growth or viability, CCK-8; 48 h): 0.95 µM
COc1cccc(CNC[C@@](O)(COCc2ccccc2)[C@@H]2CC[C@@H](C)C[C@H]2OCc2ccccc2)c1  IC50 (cell growth or viability, MTT; 72 h): 4.6 µM
CCn1cc(/C=C/c2sc3ccccc3[n+]2CC)c2ccccc21  IC50 (cell growth or viability, MTT; 24 h): 5.41 µM
C[S+](C)([O-])[Pt-2]([Cl])([Cl])[N+](=Cc1ccc[nH]1)Cc1ccccc1  IC50 (cell growth or viability, MTT; 24 h): 84.9 µg/mL
C[C@@H](NC(=O)Cc1ccc(-c2ccc(OCCN3CCOCC3)cc2)cn1)c1ccccc1  IC50 (cell growth or viability, CCK-8; 48 h): > 4 µM
COc1cc(CN2CCN(c3ccccc3Cl)CC2)c2cc3[n+](cc2c1O)CCc1cc2c(cc1-3)OCO2  IC50 (cell growth or viability, SRB; 48 h): 5.41 µg/mL
CC(=O)OC[C@H]1O[C@@H](NC(=O)NC(=O)[C@@H](C)Cc2ccc(C(C)C)cc2)[C@H](OC(C)=O)[C@@H](OC(C)=O)[C@@H]1OC(C)=O  IC50 (cell growth or viability; 96 h): 39 µM
O=C(Cc1ccc2ccccc2c1)N[C@H](Cc1ccccc1)C(=O)N[C@H](Cc1ccc(O)cc1)C(=O)N[C@H](Cc1ccccc1)C(=O)N[C@H](Cc1ccc(OP(=O)(O)O)cc1)C(=O)O  IC50 (cell growth or viability, MTT): 132 µg/mL

Some of these lines once more:
Nc1ncnc2c1ncn2CC(=O)N[C@@H](Cc1ccccc1)C(=O)N[C@@H](Cc1ccccc1)C(=O)O  IC50: > 500 µM
COC(=O)CNc1cc(CS(=O)(=O)c2ccc3ccccc3c2)ccc1OC  IC50 (cell growth or viability, MTS; 48 h): 0.096 µM
O=[N+]([O-])c1ccc(NC2=N[N+](=Cc3cccs3)[Pd-]([Cl])([Cl])[S]2)cc1  IC50 (cell growth or viability): 385 µM
O=C(/C=C/c1ccc(-c2ccccc2)cc1)N[C@@H]1O[C@H](CO)[C@@H](O)[C@H](O)[C@H]1O  IC50 (cell growth or viability; 96 h): 84 µM
